Published values collected from several papers.
Compare with care: the assays were run in different laboratories. “And” joins repeats or separate records; there may be more than shown. Converted amounts (≈) assume the structure as drawn.

For `O=C(CC1CCOCC1)Nc1ccc(C2CCCCC2)cc1`, the hepatic clearance was 18 mL/min/kg (cryopreserved human hepatocytes; 1 µM).
For `Cn1cc(-c2ccc(-c3cncc(Cl)c3N3CCC4(CCNC4=O)CC3)cc2)cn1`, “fold change in expression” read 2.18 (COLO 205; microarray, item: TXNIP; concentration not given, 6 h; reference: untreated cells).
Under “viral RNA reduction”, `CCn1c(=O)c(-c2cc[nH]n2)cc2c(C)nc(N)nc21` is recorded as > 90% (Enterovirus A71; post-entry viral replication, RT-qPCR; RD; 4 µM).
For `Cc1nn(C)c2cc(N(C)c3ccnc(Nc4cccc(S(N)(=O)=O)c4)n3)ccc12`, the selectivity was 2.1 (Trypanosoma brucei; unit not given; reference: pEC50 T. brucei minus pTC50 HepG2).
The maximal activity of `Cc1ccc(Sc2cc(NCCCO)c([N+](=O)[O-])c3nonc23)cc1` is reported as 51% (Mus musculus; gene silencing, high-content imaging; LDR reporter GFP cells; retest run 1).
The MIC90 of `CN[C@H](CC(C)C)C(=O)N[C@H]1C(=O)N[C@@H](CC(N)=O)C(=O)N[C@H]2C(=O)N[C@H]3C(=O)N[C@H](C(=O)N[C@H](C(=O)O)c4cc(O)cc(O)c4-c4cc3ccc4O)[C@H](O)c3ccc(c(Cl)c3)Oc3cc2cc(c3O[C@@H]2O[C@H](CO)[C@@H](O)[C@H](O)[C@H]2O[C@H]2C[C@](C)(N)[C@H](O)[C@H](C)O2)Oc2ccc(cc2Cl)[C@H]1O` is reported as 2 µg/mL (≈ 1.38 µM) (Staphylococcus epidermidis; broth microdilution; methicillin-resistant isolates).
`COc1ccc2c(C)cc(SCC(=O)N(C)C3CCS(=O)(=O)C3)nc2c1` (stereo not drawn) gave a maximal activity of 20% (Mus musculus; gene silencing, high-content imaging; LDR reporter GFP cells; retest run 2).
For `CC(C)n1ncc2c(C(=O)NCC3(C)CNC3)cc(C3CC3)nc21`, the cell protection was 0.265% and 0% and -0.133% (Enterovirus D68; cytopathic effect; RD, US/MO/14-18947; 5 nM).
For `NS(=O)(=O)c1ccc(Nc2cc(-c3ccc(O)c(F)c3)n[nH]2)cc1`, the selectivity was > 1.3 (Trypanosoma brucei; unit not given; reference: pEC50 T. brucei minus pTC50 HepG2).
The maximal activity of `CCN(CC)c1ccc2c(c1)oc(=O)c1c(Cl)cc(=O)oc12` is reported as 113% (Mus musculus; gene silencing, high-content imaging; LDR reporter GFP cells; retest run 2).
`CCCN(CCS(C)(=O)=O)Cc1ccc(-c2ccc3ncnc(Nc4ccc(OCc5cccc(F)c5)c(Cl)c4)c3c2)o1` has a selectivity of > 1.7 (Trypanosoma brucei; unit not given; reference: pEC50 T. brucei minus pTC50 HepG2).
With `O=C(NCc1cc[nH]n1)c1ccc([C@H]2[C@@H](F)[C@@H](F)C[C@@H](F)[C@H]2F)cc1` the hepatic clearance was 10 mL/min/kg (hepatocyte stability; cryopreserved human hepatocytes; 1 µM).

Repeated from above:
For `NS(=O)(=O)c1ccc(Nc2cc(-c3ccc(O)c(F)c3)n[nH]2)cc1`, the selectivity was > 1.3 (Trypanosoma brucei; unit not given; reference: pEC50 T. brucei minus pTC50 HepG2).
